Experimental data gathered from unrelated publications.
Every numbered part comes from another study and shows a few of its results, in no order. Positions count from the first letter of the parent shown.

Sample 1 — target: UBE2D1 UBC core domain (UniProt P51668); method: yeast two-hybrid; sample: yeast; notes: mostly zero background; baseline: not given; direction: higher = stronger interaction
B1: TRIM2 RING domain (UniProt Q9C040); chain VRQIDKQFLICSICLERYKNPKVLPCLHTFCERCLQNYIPAHSLTLSCPVCRQTSILPEKGV
B2: RNF17 RING domain (UniProt Q9BXT8); chain SQPWGAAEIQCTRCGRRVSRSSGHHCELQCGHAFCELCLLMTEECTTIICPDCEVATAVNTRQR
B3: RNF11 RING domain (UniProt Q9Y3C5); chain RDGSEKKIRECVICMMDFVYGDPIRFLPCMHIYHLDCIDDWLMRSFTCPSCMEPVDAALLSS
B4: PJA2 RING domain (UniProt O43164); chain DHTAIGQEQCCPICCSEYIKDDIATELPCHHFFHKPCVSIWLQKSGTCPVCRRHFPPAVIEA
B5: UBE4B RING domain (UniProt O95155); chain KNARAEIDYSDAPDEFRDPLMDTLMTDPVRLPSGTIMDRSIILRHLLNSPTDPFNRQTLTESMLEPVPELKEQIQAWMREKQNSDH
B6: TRIM34 RING domain (UniProt Q9BYJ4); chain ILLNVQEEVTCPICLELLTEPLSLDCGHSLCRACITVSNKEAVTSMGGKSSCPVCGISYSFEHLQA
B7: TRIM28 RING domain (UniProt Q13263); chain GAEALELLEHCGVCRERLRPEREPRLLPCLHSACSACLGPAAPAAANSSGDGGAAGDGTVVDCPVCKQQCFSKDIVE
B8: RNF115 RING domain (UniProt Q9Y4L5); chain TQEQVDMGLECPVCKEDYTVEEEVRQLPCNHFFHSSCIVPWLELHDTCPVCRKSLNGEDSTR
B9: RNF10 RING domain (UniProt Q8N5U6); chain VRICSHEVPSCPICLYPPTAAKITRCGHIFCWACILHYLSLSEKTWSKCPICYSSVHKKDLKS
Residues (chain): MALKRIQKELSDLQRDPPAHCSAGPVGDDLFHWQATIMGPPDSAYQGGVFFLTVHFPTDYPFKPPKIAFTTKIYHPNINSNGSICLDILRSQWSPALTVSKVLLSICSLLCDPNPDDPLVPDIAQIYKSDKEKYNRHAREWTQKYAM
| Sequence | lacZ reporter activity |
| --- | --- |
| B1 (TRIM2 RING domain) | 0 |
| B2 (RNF17 RING domain) | 0 |
| B3 (RNF11 RING domain) | 11000 |
| B4 (PJA2 RING domain) | 2040 |
| B5 (UBE4B RING domain) | 0 |
| B6 (TRIM34 RING domain) | 0 |
| AAQLLEEKLTCAICLGLYQDPVTLPCGHNFCGACIRDWWDRCGKACPECREPFPDGAELR (TRIM65 RING domain (UniProt Q6PJ69)) | 0 |
| EIKDYKARLTCPCCNMRKKDAVLTKCFHVFCFECVKTRYDTRQRKCPKCNAAFGANDFHR (RNF20 RING domain (UniProt Q5VTR2)) | 0 |
| B7 (TRIM28 RING domain) | 0 |
| B8 (RNF115 RING domain) | 11100 |
| PLRRLQEEKLCKICMDRHIAVVFIPCGHLVTCKQCAEAVDRCPMCSAVIDFKQRVF (BIRC8 RING domain (UniProt Q96P09)) | 0 |
| B9 (RNF10 RING domain) | 0 |

Sample 2 — method: DHFR PCA, deep sequencing; sample: yeast; added: (+)-ABA 17 µM; baseline: wild-type fitted maximum; direction: higher = stronger binding
Target: ABI1, truncated, D143A, DHFR fusion (Arabidopsis thaliana)
Notes: methotrexate growth selection, single substitutions
Parent: PYL1, truncated, DHFR fusion (Arabidopsis thaliana); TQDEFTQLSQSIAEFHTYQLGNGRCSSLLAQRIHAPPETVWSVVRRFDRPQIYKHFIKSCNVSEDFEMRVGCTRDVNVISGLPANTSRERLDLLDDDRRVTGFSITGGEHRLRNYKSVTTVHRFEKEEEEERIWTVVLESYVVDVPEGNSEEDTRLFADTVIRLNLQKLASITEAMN; partner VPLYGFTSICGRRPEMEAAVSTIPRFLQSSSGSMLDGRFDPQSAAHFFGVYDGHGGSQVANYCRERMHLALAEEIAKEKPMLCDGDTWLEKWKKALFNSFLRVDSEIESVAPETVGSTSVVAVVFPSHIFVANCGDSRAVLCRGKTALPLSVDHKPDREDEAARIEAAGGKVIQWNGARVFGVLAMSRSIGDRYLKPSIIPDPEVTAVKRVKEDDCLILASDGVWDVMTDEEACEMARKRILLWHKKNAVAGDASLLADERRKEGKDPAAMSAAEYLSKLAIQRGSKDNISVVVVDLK
| Variant | relative binding score [%] |
| --- | --- |
| V78Y | 60.3 |
| V100Y | 15.7 |
| Q167P | -6.75 |
| E130T | 81.1 |
| R88F | 86.1 |
| D48N | 43.9 |
| N114H | 69.6 |
| T17G | 35 |
| Q31V | 44 |
| E128C | 89.2 |
| I33H | -4.41 |
| G107W | 2.54 |
| V161M | 39.6 |
| Q19I | 75.9 |
| D75T | 94.8 |
| L112A | -1.98 |
| F157H | -2.93 |
| R113E | 74 |
| E125M | 88.5 |
| V118G | -18.5 |
| V143Q | 3.9 |
| R88V | 88.7 |
| L112G | -1.22 |

Sample 3 — method: RNA Bind-n-Seq; form: RNA; sample: in vitro; tested at: 365 nM; baseline: no-protein control; direction: higher = stronger binding
Target: RNA binding protein fox-1 homolog 2, RRM domain, GST-SBP tag (RBFOX2, Homo sapiens, UniProt O43251-10, residues 100-194)
Notes: natural RNA segment, single round, ends assumed
Shared flanks, not repeated: GGGAGUUCUACAGUCCGACGAUC … UGGAAUUCUCGGGUGCCAA
Target sequence (chain): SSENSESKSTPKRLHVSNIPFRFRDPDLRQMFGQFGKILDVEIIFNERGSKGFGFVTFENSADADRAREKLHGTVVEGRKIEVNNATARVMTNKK
| Sequence | RBNS enrichment (R) |
| --- | --- |
| AGGUAGUGUGUAGCUCCAUUUCAGAAUGUUAACCUCCAGUGAAGAGCUAAUGACUGGUUAGAAGAUUGACAAACUAACCAAAAUUUUACACACUCCGGUUAUGUGUGUGA | 2.39 |
| GAGUUUCUCUGUGUAGCUUUGGUUGUCCUGGAACUCACUCUGUAGACCAGGCCAGCCUUGAACUAACACAUAGGUUGGACCUCUGAAUGGCCUUAUACUUGGAUAUUUGG | 0.348 |
| AAUCCCAACCUGUUAGUCCCAGUAGUUUUGUUUUAACAUGGUCUUUUUCAACUUUGUUUCCUGUUUAACUACAGAUGACUUCUGUUGUAGACUCACAAGUUUAACUGUUG | 0.308 |
| AAGUCUGGUAUUAAAACCUCUCUUACUUUUAAACUUGAUUUUGCAGACUCUGGCAAUAAGCCUUCCAAAAUUCUGUGCCUUUUCUAUUAUCACCAAACAAUAUGUUAAGU | 0.732 |
| AGAGAUGCCUGUCCUGUGCUUGGAUAGUCAGUCAAUUAUUUGUGUAUGAAACAAUGUACAAAUCAAUGUUUUGAAAAUAAUGAUCUCAGACUUUCUAAGUUAAAUUUUAA | 0.73 |
| ACCUCUUGGCUGACCAAAGCUGGGACAGGGCUUUAACCAGACAUAGGAGCAGUGUGCAAUUCCUGAUUCACUGCACAGUAUUAUGUCAUAAUUGCAGGAAUUAUUUUUUG | 0.425 |
| UGUGCUAUUGUGUGCGUGGUUGCUGAGACAAAAACUGGGACAAAGCAACUUACAGAGGGUAUUUUAGCUCAGUUCAGGUGUGGGGUCCACAGUGCUGAGGAAAUCAUAGU | 0.78 |
| GCAAGAGAUAAAAACCAACAAAACCUAACCUGGUGACCACAUGUCUGUGACUCCAUGUACUCAUCCCAAGGUUGUAUCUGGAGCCUGUGGGCUGGCUAGAUGAUAUAGGU | 1.39 |
| UCUACUGGCGUUUUAAAACUGUUAAAUGUGCACAUUUUGGGUAUAGCUAUUUUCACUUGUAUGUAUAUAUUGUAUAUACAUAUAAGUGUCUGUAUGUGUGUAUAGAUGGA | 0.314 |
| CCAUGGCCGCUCACCUUCCAUGAGACCACUCUUGUCACAUUGCUUUCCUUUAAGAUGCAUAUGCUUAACUAUUUGCAGUGUAUUCCUCAACAUAAACUUGUCUGACAGCA | 0.548 |
| UUUCUCAGUGUGUGUAUUUCCUAAUUUAUUUACCUCUUUUUUUCCCCUUUCUUUCUUUUUUUUAAUUAAAGAGCAAAACUUUUUAUUACUUUGUAAUUUAAAAAACUGAA | 0.807 |
| UCCUGAGCCCUGCUCUCCUCUCCUCCAUCCUGUCCCAAUCUGUGUCCCCCUUGACCUGUGGCUCCAGGCCAUCGGCAUUGGUGCCUACGUGUCCAGCCACUGCCUGCUGA | 2.35 |

Sample 4 — organism: Saccharomyces cerevisiae; observed: binding; method: competitive growth deep sequencing; form: peptide; strain: cyclin D3-Cln2 fusion strain; tested at: concentration not given; notes: RxL motif peptides; direction: direction not given
| Sequence | growth enrichment score |
| --- | --- |
| TSACRSLFGPVDH | 0.0566 |
| PPAKRRLELGESG | 0.105 |
| TKVRRNLFNQELL | 0.0691 |
| VKTKKRLNFDDKV | 0.107 |
| GSPLKKLFTSTGL | 0.0805 |
| VAPRRVLFADEAL | 0.124 |
| TLKGRRLVFDNQL | 0.12 |
| SRIRRELFIEEIQ | 0.293 |
| ICAKRSLCAAFSV | 0.144 |
| PCHRRVLCFDSTT | 0.174 |

For quick reference, copied from above (sample 2):
| Variant | relative binding score [%] |
| --- | --- |
| L112A | -1.98 |
| G107W | 2.54 |
| V78Y | 60.3 |
| E130T | 81.1 |
| I33H | -4.41 |
| L112G | -1.22 |
